Experimental data from different studies.
Compare with care: the assays were run in different laboratories. Numbers after ± are the reported error.

Compound	test	system	conditions	scale	quantity	result
Cc1cc(-c2ccc(NC(=O)[C@H](CCCCNC(=O)CCN3C(=O)CC(SCCC(=O)N[C@H](Cc4ccccc4)C(=O)N[C@H]4CSSC[C@@H](C(=O)N[C@H](C(=O)O)[C@@H](C)O)NC(=O)[C@H]([C@@H](C)O)NC(=O)[C@H](CCCCN)NC(=O)[C@@H](Cc5c[nH]c6ccccc56)NC(=O)[C@H](Cc5ccc(O)cc5)NC4=O)C3=O)NC(=O)CN3CCN(CC(=O)O)CCN(CC(=O)O)CCN(CC(=O)O)CC3)c(C)c2)ccc1N=Nc1ccc2c(S(=O)(=O)O)cc(S(=O)(=O)O)c(N)c2c1O (stereo partly drawn) [lutetium-177 labelled]	SPECT/CT dosimetry	patients with metastatic NETs, all tumour lesions	–	–	absorbed dose	0.71 ± 0.13 Gy/GBq
CC[C@H](C)[C@H](NC(=O)[C@H](CCN)NC(=O)CCCCCCCCCCCNC(=O)CCCCCOC(=O)c1cn(C2CC2)c2cc(N3CCNCC3)c(F)cc2c1=O)C(=O)N[C@@H](CCN)C(=O)N[C@H](Cc1ccccc1)C(=O)N[C@@H](CC(C)C)C(=O)N[C@@H](CCN)C(=O)N[C@@H](C(=O)N[C@@H](CC(C)C)C(=O)N[C@@H](CO)C(N)=O)C(C)C	light transmittance	PBS	pH 7.4	–	critical micelle concentration	195 µM
N=C(N)NCCC[C@@H]1NC(=O)[C@H](CCCCNC(=O)CC[C@H](NC(=O)CC[C@H](NC(=O)CN2CCN(CC(=O)O)CCN(CC(=O)O)CCN(CC(=O)O)CC2)C(=O)N[C@@H](CCC(=O)NCCCC[C@@H]2NC(=O)[C@@H](Cc3ccccc3)NC(=O)[C@H](CC(=O)O)NC(=O)CNC(=O)[C@H](CCCNC(=N)N)NC2=O)C(=O)NCCCC[C@@H]2NC(=O)[C@@H](Cc3ccccc3)NC(=O)[C@H](CC(=O)O)NC(=O)CNC(=O)[C@H](CCCNC(=N)N)NC2=O)C(=O)NCCCC[C@@H]2NC(=O)[C@@H](Cc3ccccc3)NC(=O)[C@H](CC(=O)O)NC(=O)CNC(=O)[C@H](CCCNC(=N)N)NC2=O)NC(=O)[C@@H](Cc2ccccc2)NC(=O)[C@H](CC(=O)O)NC(=O)CNC1=O [indium-111 labelled]	–	female athymic nu/nu mice, muscle	intravenous, 111 kBq, 72 h	–	tissue uptake	0.68 ± 0.31 %ID/g
CC(C)C[C@H](NC(=O)[C@H](Cc1ccc(O)cc1)NC(=O)[C@@H](CCCNC(=N)N)NC(=O)[C@@H](CO)NC(=O)[C@H](Cc1ccccc1)NC(=O)[C@H](CC1CCCCC1)NC(=O)[C@H](CC(=O)O)NC(=O)CN1CCCN2CCN(CCCN(CC(=O)O)CC2)CC1)C(=O)N[C@@H](Cc1c[nH]c2ccccc12)C(=O)N[C@@H](CO)C(=O)O [copper-64 labelled]	–	female NMRI nude mice, kidney	22 h p.i.	–	tissue uptake	5.2 ± 1.4 %ID/g
N=C(N)NCCC[C@@H]1NC(=O)[C@H](CCCCNC(=O)CNC(=O)CNC(=O)CNC(=O)CC[C@H](NC(=O)CNC(=O)CNC(=O)CNC(=O)CC[C@H](NC(=O)CN2CCN(CC(=O)O)CCN(CC(=O)O)CCN(CC(=O)O)CC2)C(=O)NCC(=O)NCC(=O)NCC(=O)N[C@@H](CCC(=O)NCC(=O)NCC(=O)NCC(=O)NCCCC[C@@H]2NC(=O)[C@@H](Cc3ccccc3)NC(=O)[C@H](CC(=O)O)NC(=O)CNC(=O)[C@H](CCCNC(=N)N)NC2=O)C(=O)NCC(=O)NCC(=O)NCC(=O)NCCCC[C@@H]2NC(=O)[C@@H](Cc3ccccc3)NC(=O)[C@H](CC(=O)O)NC(=O)CNC(=O)[C@H](CCCNC(=N)N)NC2=O)C(=O)NCC(=O)NCC(=O)NCC(=O)NCCCC[C@@H]2NC(=O)[C@@H](Cc3ccccc3)NC(=O)[C@H](CC(=O)O)NC(=O)CNC(=O)[C@H](CCCNC(=N)N)NC2=O)NC(=O)[C@@H](Cc2ccccc2)NC(=O)[C@H](CC(=O)O)NC(=O)CNC1=O [indium-111 labelled]	–	female athymic nu/nu mice, lungs	intravenous, 0.5 h	–	tissue uptake	3.65 ± 0.87 %ID/g
Cc1cc(-c2ccc(NC(=O)[C@H](CCCCNC(=O)CCOCCOCCC(=O)N[C@H](Cc3ccccc3)C(=O)N[C@H]3CSSC[C@@H](C(=O)N[C@H](C(=O)O)[C@@H](C)O)NC(=O)[C@H]([C@@H](C)O)NC(=O)[C@H](CCCCN)NC(=O)[C@@H](Cc4c[nH]c5ccccc45)NC(=O)[C@H](Cc4ccc(O)cc4)NC3=O)NC(=O)CN3CCN(CC(=O)O)CCN(CC(=O)O)CCN(CC(=O)O)CC3)c(C)c2)ccc1N=Nc1ccc2c(S(=O)(=O)O)cc(S(=O)(=O)O)c(N)c2c1O [gallium-68 labelled]	micro-PET	male BALB/c nude mouse, AR42J xenograft, tumour and muscle	intravenous, 7.4 MBq, 4 h	relative to: tumour over muscle	tumour-to-tissue uptake ratio	9.81 ± 0.32
N=C(N)NCCC[C@@H]1NC(=O)[C@H](CCCCNC(=O)CNC(=O)CNC(=O)CNC(=O)CC[C@H](NC(=O)CNC(=O)CNC(=O)CNC(=O)CN2CCN(CC(=O)O)CCN(CC(=O)O)CCN(CC(=O)O)CC2)C(=O)NCC(=O)NCC(=O)NCC(=O)NCCCC[C@@H]2NC(=O)[C@@H](Cc3ccccc3)NC(=O)[C@H](CC(=O)O)NC(=O)CNC(=O)[C@H](CCCNC(=N)N)NC2=O)NC(=O)[C@@H](Cc2ccccc2)NC(=O)[C@H](CC(=O)O)NC(=O)CNC1=O [indium-111 labelled]	–	female athymic nu/nu mice, muscle	intravenous, 111 kBq, 1 h	–	tissue uptake	0.7 ± 0.03 %ID/g
CCCC[C@H](NC(=O)COCCOCCNC(=O)CN1CCN(CC(=O)O)CCN(CC(=O)O)CC1)C(=O)N[C@H]1CC(=O)NCCCC[C@@H](C(N)=O)NC(=O)[C@H](Cc2c[nH]c3ccccc23)NC(=O)[C@H](CCCNC(=N)N)NC(=O)[C@@H](Cc2ccccc2)NC(=O)[C@H](Cc2c[nH]cn2)NC1=O [copper-64 labelled]	–	C57 mice, stomach	intravenous, 0.37 MBq, 4 h	–	tissue uptake	0.92 ± 0.27 %ID/g
CCCC[C@H](NC(=O)CNC(=O)CNC(=O)CN1CCN(CC(=O)O)CCN(CC(=O)O)CCN(CC(=O)O)CC1)C(=O)N[C@H]1CC(=O)NCCCC[C@@H](C(N)=O)NC(=O)[C@H](Cc2c[nH]c3ccccc23)NC(=O)[C@H](CCCNC(=N)N)NC(=O)[C@@H](Cc2ccccc2)NC(=O)[C@H](Cc2c[nH]cn2)NC1=O [lutetium-177 labelled]	–	C57 mouse, female, kidneys	intravenous, 0.037 MBq, 4 h	–	tissue uptake	9.68 ± 1.95 %ID/g

Repeated from above:
Compound	test	system	conditions	scale	quantity	result
CC(C)C[C@H](NC(=O)[C@H](Cc1ccc(O)cc1)NC(=O)[C@@H](CCCNC(=N)N)NC(=O)[C@@H](CO)NC(=O)[C@H](Cc1ccccc1)NC(=O)[C@H](CC1CCCCC1)NC(=O)[C@H](CC(=O)O)NC(=O)CN1CCCN2CCN(CCCN(CC(=O)O)CC2)CC1)C(=O)N[C@@H](Cc1c[nH]c2ccccc12)C(=O)N[C@@H](CO)C(=O)O [copper-64 labelled]	–	female NMRI nude mice, kidney	22 h p.i.	–	tissue uptake	5.2 ± 1.4 %ID/g
